Assay results collected from several papers.
Compare with care: the assays were run in different laboratories. “And” joins repeats or separate records; there may be more than shown. ± gives the spread as reported.

COCC1CN(C2CCN(c3cc(OC)c(Nc4ncc(Br)c(Nc5ccc6c(c5P(C)(C)=O)OCCO6)n4)cc3C)CC2)C1 has a partial response of 0% (RECIST 1.1; advanced EGFR-mutant NSCLC patients; 240 mg once daily).
O=S(=O)(NCc1ccncc1)c1ccc(C2CCCCC2)cc1: “IBA1 surface area reduction” about 54% (immunohistochemistry; CK-p25 mice male, hippocampal dentate gyrus; ip, 0.1 mg/kg daily, 2 wk; reference: vehicle).
For CN1CCC[C@]1(C)/C=C/S(=O)(=O)NC(=O)Nc1c2c(cc3c1CCC3)CCC2, the IL-18 inhibition was 82.3% (human, whole blood ex vivo; 25 mg single dose, 24 h, single ascending dose, with: LPS and ATP).
Under “LTB4 isomers level”, COc1ccc(C(=O)CCc2cc(C(CCc3ccc(O)cc3OC)c3ccc(O)cc3)c(O)cc2OC)cc1 (racemic) is recorded as 327 ± 156 pg/mL (human blood; 30 µM, with: A23187).
COCCOCCOCCNC(=O)Cc1cc(CC(=O)N[C@H]2C[C@H]3C(=O)Nc4cc(OCCOCCOCCOC)cc(n4)C(=O)N4CCC[C@H]4C(=O)Nc4cc(OCCOCCOCCOC)cc(n4)C(=O)N4CCC[C@H]4C(=O)Nc4cc(OCCOCCOCCOC)cc(n4)C(=O)N3C2)cc(CC(=O)N[C@H]2C[C@H]3C(=O)Nc4cc(OCCOCCOCCOC)cc(n4)C(=O)N4CCC[C@H]4C(=O)Nc4cc(OCCOCCOCCOC)cc(n4)C(=O)N4CCC[C@H]4C(=O)Nc4cc(OCCOCCOCCOC)cc(n4)C(=O)N3C2)c1 gave a ΔH of 1.22 ± 0.0239 kcal/mol (anion binding, ITC; water/methanol 95 vol% (97.7 mol%); 298 K, with: sodium sulfate).
For CCCCCCCCCCCCCCCC(=O)OCC(CSC[C@H](N)C(=O)N[C@@H](CO)C(=O)N[C@@H](CCCCN)C(=O)N[C@@H](CCCCN)C(=O)N[C@@H](CCCCN)C(=O)N[C@@H](CCCCN)C(=O)NCCCCCC(=O)N[C@@H](CCCCN)C(=O)N[C@@H](CC(C)C)C(=O)N[C@H](C(=O)N[C@@H](Cc1ccccc1)C(=O)N[C@@H](Cc1ccccc1)C(=O)N[C@@H](Cc1ccc2ccccc2c1)C(=O)O)C(C)C)OC(=O)CCCCCCCCCCCCCCC (stereo partly drawn), “cleaved caspase-3 level” read 0.985 and 1.28 and 2.28 and 0.00352 (APP/PS1 transgenic mouse, hippocampus; intrahippocampal, dose not given, unit not given; reference: injected over adjacent side).
Under “log2 fold change”, COC1CN([C@H]2CC[C@H]([C@@]3(C)Oc4c(Cl)cc(C(=O)NCc5c(SC)cc(C)[nH]c5=O)c(C)c4O3)CC2)C1 is recorded as 1.38 (RNA-seq, measured: MMP8 mouse homolog; mouse, HT-1376 xenograft, whole blood; dose not given; reference: vehicle).
CC(=O)[O-].O.[Cu+2].[O-]c1ccc(Br)cc1C=NCCN1CCOCC1 — result for “ferric reducing power”: 33.2% (FRAP; 120 µM).
COc1cc(O)ccc1CCC(c1ccc(O)cc1)c1cc2c(c(C)c1O)OC(c1ccc(O)cc1)CC2 (mixture of isomers): “LTB4 isomers level” 107 ± 67 pg/mL (human blood; 10 µM, with: A23187).

For quick reference, copied from above:
COCC1CN(C2CCN(c3cc(OC)c(Nc4ncc(Br)c(Nc5ccc6c(c5P(C)(C)=O)OCCO6)n4)cc3C)CC2)C1 has a partial response of 0% (RECIST 1.1; advanced EGFR-mutant NSCLC patients; 240 mg once daily).
